# Published values from different studies.
# Compare with care: the assays were run in different laboratories. Several values in a cell are separate wells, animals, samples, runs or records.
SMILES,assay,system,setting,scale,quantity,value
CC[C@H](C)[C@H](NC(=O)[C@H](CC(C)C)NC(=O)[C@H](Cc1c[nH]c2ccccc12)NC(=O)[C@H](C)NC(=O)[C@@H](NC(=O)[C@H](Cc1ccccc1)NC(=O)[C@H](CC(=O)O)NC(=O)[C@H](CCCNC(=N)N)NC(=O)[C@H](C)NC(=O)[C@H](C)NC(=O)[C@H](CC(C)C)NC(=O)[C@H](C)NC(=O)[C@H](CC(=O)O)NC(=O)[C@H](CC(C)C)NC(=O)[C@@H](NC(=O)[C@@H](NC(=O)[C@H](C)NC(=O)[C@H](CC(C)C)NC(=O)[C@H](CCC(=O)O)NC(=O)[C@H](CO)NC(=O)[C@H](CO)NC(=O)[C@H](Cc1ccccc1)NC(=O)[C@@H](NC(=O)CNC(=O)[C@H](CCC(=O)O)NC(=O)CNC(=O)[C@@H](N)Cc1c[nH]cn1)[C@@H](C)O)[C@@H](C)O)[C@@H](C)CC)[C@@H](C)CC)C(=O)N[C@@H](C)C(=O)N[C@H](C(=O)N[C@@H](CCCCN)C(=O)N[C@H](C(=O)N[C@H](C(=O)N[C@@H](CC(=O)O)C(=O)N[C@@H](CCCCN)C(=O)O)[C@@H](C)O)[C@@H](C)CC)[C@@H](C)O,,"healthy human subjects, plasma","intravenous infusion, 1 mg glepaglutide",relative to: sum of parent and metabolites,share of total exposure,~7%
C=CC(=O)Nc1cc(Nc2nccc(-c3cn(C4CC4)c4ccccc34)n2)c(OC)cc1N(C)CCNC,radio-HPLC,"human male, feces","oral, 110 mg, 48 to 96 h, sample holds 20.06% dose",relative to: sample radioactivity,share of radioactivity,17.1%
CC[C@H](C)[C@H](NC(=O)[C@H](CC(C)C)NC(=O)[C@H](Cc1c[nH]c2ccccc12)NC(=O)[C@H](C)NC(=O)[C@@H](NC(=O)[C@H](Cc1ccccc1)NC(=O)[C@H](CC(=O)O)NC(=O)[C@H](CCCNC(=N)N)NC(=O)[C@H](C)NC(=O)[C@H](C)NC(=O)[C@H](CC(C)C)NC(=O)[C@H](C)NC(=O)[C@H](CC(=O)O)NC(=O)[C@H](CC(C)C)NC(=O)[C@@H](NC(=O)[C@@H](NC(=O)[C@H](C)NC(=O)[C@H](CC(C)C)NC(=O)[C@H](CCC(=O)O)NC(=O)[C@H](CO)NC(=O)[C@H](CO)NC(=O)[C@H](Cc1ccccc1)NC(=O)[C@@H](NC(=O)CNC(=O)[C@H](CCC(=O)O)NC(=O)CNC(=O)[C@@H](N)Cc1c[nH]cn1)[C@@H](C)O)[C@@H](C)O)[C@@H](C)CC)[C@@H](C)CC)C(=O)N[C@@H](C)C(=O)N[C@H](C(=O)N[C@@H](CCCCN)C(=O)N[C@H](C(=O)N[C@H](C(=O)N[C@@H](CC(=O)O)C(=O)N[C@@H](CCCCN)C(=O)N[C@@H](CCCCN)C(=O)O)[C@@H](C)O)[C@@H](C)CC)[C@@H](C)O,,"healthy human subjects, plasma","intravenous infusion, 1 mg glepaglutide",relative to: sum of parent and metabolites,share of total exposure,~2%
O=C(O)C1OC(OC2CCC(C(O)CC3c4c(F)cccc4-c4cncn43)CC2)C(O)C(O)C1O (stereo not drawn),,"human, plasma","oral, 200 mg, 0 to 48 h pooled, [14C]-navoximod dosed",,share of total radioactivity in plasma,3.14%
Cn1c(=O)oc2ccc(-c3ccc(CC(C#N)NC(=O)C4CNCCCO4)c(F)c3)cc21 (stereo not drawn),item: white blood cells in urine,human volunteers,"80 mg single dose, fasted",,share of subjects with TEAE,0%
CCc1nc(C(N)=O)c(Nc2ccc(N3CCC(N4CCNCC4)CC3)c(OC)c2)nc1NC1CCOCC1,metabolite profiling,"human, advanced solid tumours, urine","oral, 120 mg of [14C]-gilteritinib",,share of radioactivity,0.4 to 2.1%
CNc1cc(OC)c(Nc2nccc(-c3cn(C4CC4)c4ccccc34)n2)cc1NC(=O)CCSCC(N)C(=O)O (stereo not drawn),"radio-HPLC, co-eluting peaks pooled","human, feces","dose not given, 0 to 240 h, sample holds 81.99% dose",relative to: sample radioactivity,share of radioactivity,8.24%
CCc1cc(Nc2nc(-c3ccc(-n4cnc(C)c4)c(F)c3)cs2)c(C)cc1C(=O)O,,"human, plasma","oral, dose not given",,share of drug-related material,> 10%
COc1cc(N(C)CCN(C)C)c(NC(=O)CCSCC(NC(C)=O)C(=O)O)cc1Nc1nccc(-c2cn(C3CC3)c3ccccc23)n1 (stereo not drawn),"radio-HPLC, co-eluting peaks pooled","human, feces","dose not given, 0 to 240 h, sample holds 81.99% dose",relative to: sample radioactivity,share of radioactivity,2.49%
CC12CC(c3ccc(S(C)(=O)=O)cc3)C3=C4CCC(O)C=C4CCC3C1CCC2(O)C(F)(F)C(F)(F)F (stereo not drawn),,"human, plasma","oral, 5 mg, mass balance study",,share of total radioactivity AUC,5 to 7% and 5.2 to 6.6%
C=CC(=O)Nc1cc(Nc2nccc(-c3cn(C4CC4)c4ccccc34)n2)c(OC)cc1NC,radio-HPLC,"human male, feces","oral, 110 mg, 0 to 48 h, sample holds 45.32% dose",relative to: sample radioactivity,share of radioactivity,0.74%
O=C(O)[C@H]1O[C@@H](O[C@H](C[C@H]2c3c(F)cccc3-c3cncn32)[C@H]2CC[C@H](O)CC2)[C@H](O)[C@@H](O)[C@@H]1O,,"human, plasma","oral, 200 mg, 0 to 48 h pooled, [14C]-navoximod dosed",,share of total radioactivity in plasma,57.5%
